# Experimental data from different studies.
# Compare with care: the assays were run in different laboratories. “And” joins repeats or separate records; there may be more than shown. ± gives the spread as reported.
# CA2: Carbonic anhydrase 2 (CA2, Homo sapiens, UniProt P00918)
# ALDH1B1: Aldehyde dehydrogenase X, mitochondrial (ALDH1B1, Homo sapiens, UniProt P30837)
# Chain of UniProt P30837 (whole entry, looked up): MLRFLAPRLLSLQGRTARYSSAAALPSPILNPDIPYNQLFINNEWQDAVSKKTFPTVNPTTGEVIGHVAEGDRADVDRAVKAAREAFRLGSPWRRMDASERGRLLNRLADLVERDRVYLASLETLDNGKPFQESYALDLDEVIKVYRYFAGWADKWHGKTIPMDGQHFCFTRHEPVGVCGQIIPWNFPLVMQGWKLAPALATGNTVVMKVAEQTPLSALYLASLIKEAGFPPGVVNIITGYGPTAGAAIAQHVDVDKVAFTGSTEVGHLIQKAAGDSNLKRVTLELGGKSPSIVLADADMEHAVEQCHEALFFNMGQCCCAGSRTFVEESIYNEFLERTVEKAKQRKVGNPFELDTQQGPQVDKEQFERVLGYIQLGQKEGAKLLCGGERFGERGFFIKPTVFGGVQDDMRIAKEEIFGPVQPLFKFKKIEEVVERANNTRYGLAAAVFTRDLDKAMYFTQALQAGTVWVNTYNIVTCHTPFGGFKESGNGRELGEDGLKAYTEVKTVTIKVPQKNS
# Tumor necrosis factor receptor superfamily member 1A extracellular domain: Tumor necrosis factor receptor superfamily member 1A, extracellular domain (Homo sapiens, UniProt P19438)
# Chain of UniProt P19438 (whole entry, looked up): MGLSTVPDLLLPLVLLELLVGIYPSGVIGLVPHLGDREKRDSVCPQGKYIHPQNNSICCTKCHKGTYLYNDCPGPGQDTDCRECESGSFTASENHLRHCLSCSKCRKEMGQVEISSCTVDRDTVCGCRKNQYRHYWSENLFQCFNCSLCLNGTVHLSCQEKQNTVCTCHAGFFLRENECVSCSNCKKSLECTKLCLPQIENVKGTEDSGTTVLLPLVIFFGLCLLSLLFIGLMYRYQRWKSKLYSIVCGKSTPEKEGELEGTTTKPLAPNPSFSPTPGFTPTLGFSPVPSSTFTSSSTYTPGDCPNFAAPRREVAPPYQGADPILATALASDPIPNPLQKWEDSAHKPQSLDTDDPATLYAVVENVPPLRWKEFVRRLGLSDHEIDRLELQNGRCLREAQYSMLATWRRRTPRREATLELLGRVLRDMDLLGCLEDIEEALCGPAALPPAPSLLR
# GATD3: Glutamine amidotransferase-like class 1 domain-containing protein 3, mitochondrial (GATD3, Homo sapiens, UniProt P0DPI2)
# Chain of UniProt P0DPI2 (whole entry, looked up): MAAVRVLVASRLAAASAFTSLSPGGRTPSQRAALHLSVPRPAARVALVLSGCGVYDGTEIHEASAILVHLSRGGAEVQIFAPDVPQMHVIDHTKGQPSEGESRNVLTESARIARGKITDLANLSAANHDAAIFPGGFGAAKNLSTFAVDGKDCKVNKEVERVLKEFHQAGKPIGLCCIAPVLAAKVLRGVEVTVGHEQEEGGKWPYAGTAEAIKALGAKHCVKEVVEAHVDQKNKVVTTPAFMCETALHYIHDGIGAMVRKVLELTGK
# FKBP4 FK1 domain: Peptidyl-prolyl cis-trans isomerase FKBP4, FK1 domain (FKBP4, Homo sapiens, UniProt Q02790)
# Chain of UniProt Q02790 (whole entry, looked up): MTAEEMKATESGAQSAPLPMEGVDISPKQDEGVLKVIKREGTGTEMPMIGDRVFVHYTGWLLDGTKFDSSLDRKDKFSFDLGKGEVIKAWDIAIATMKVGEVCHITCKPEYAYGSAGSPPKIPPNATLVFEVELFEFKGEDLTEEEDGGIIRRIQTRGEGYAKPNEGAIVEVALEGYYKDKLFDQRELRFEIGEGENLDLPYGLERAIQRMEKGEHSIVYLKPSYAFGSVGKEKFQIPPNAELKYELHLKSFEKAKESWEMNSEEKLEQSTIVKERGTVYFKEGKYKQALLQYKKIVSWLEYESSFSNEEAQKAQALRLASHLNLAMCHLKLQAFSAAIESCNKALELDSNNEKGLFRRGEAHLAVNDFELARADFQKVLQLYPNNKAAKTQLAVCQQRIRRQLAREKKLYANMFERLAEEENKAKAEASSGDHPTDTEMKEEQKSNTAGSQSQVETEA
# Chain of UniProt Q16611 (whole entry, looked up): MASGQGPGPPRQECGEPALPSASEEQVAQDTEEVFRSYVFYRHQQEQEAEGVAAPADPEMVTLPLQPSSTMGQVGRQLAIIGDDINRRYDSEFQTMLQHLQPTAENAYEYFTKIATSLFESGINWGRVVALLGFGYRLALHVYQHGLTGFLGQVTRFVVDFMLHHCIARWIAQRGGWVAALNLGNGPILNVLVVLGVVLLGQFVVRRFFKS
# Chain of UniProt Q96AB3 (whole entry, looked up): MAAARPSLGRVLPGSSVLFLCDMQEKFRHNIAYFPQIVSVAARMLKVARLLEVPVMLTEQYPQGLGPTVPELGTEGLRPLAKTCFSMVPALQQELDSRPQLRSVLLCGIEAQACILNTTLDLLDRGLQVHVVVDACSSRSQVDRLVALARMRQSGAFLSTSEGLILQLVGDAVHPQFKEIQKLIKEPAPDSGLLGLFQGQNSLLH
# Chain of UniProt Q9Z2X8 (whole entry, looked up): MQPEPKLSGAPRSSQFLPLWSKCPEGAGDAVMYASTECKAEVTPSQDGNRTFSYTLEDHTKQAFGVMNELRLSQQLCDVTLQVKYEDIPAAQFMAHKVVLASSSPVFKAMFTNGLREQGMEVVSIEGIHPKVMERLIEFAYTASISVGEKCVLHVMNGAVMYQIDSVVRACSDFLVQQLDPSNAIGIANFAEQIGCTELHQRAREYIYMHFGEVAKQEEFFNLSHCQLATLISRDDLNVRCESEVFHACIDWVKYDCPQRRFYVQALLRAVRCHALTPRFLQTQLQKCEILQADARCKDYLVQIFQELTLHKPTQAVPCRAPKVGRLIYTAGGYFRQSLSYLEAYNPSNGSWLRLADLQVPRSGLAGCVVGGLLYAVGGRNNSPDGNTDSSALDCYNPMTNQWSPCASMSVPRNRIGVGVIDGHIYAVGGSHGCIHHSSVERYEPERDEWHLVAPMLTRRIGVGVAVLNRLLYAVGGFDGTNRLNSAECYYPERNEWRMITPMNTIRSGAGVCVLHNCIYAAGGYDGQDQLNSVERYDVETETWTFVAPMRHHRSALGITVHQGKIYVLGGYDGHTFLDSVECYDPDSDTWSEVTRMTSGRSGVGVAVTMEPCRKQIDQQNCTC
# Chain of UniProt P62258 (whole entry, looked up): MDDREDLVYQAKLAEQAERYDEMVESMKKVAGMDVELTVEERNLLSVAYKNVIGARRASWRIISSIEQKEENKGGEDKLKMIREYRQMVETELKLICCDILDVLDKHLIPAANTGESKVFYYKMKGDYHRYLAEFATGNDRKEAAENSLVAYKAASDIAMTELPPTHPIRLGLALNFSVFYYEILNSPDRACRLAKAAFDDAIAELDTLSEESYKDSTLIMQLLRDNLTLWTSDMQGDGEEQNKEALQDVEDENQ
# Chain of UniProt Q9UM73 (whole entry, unmodified, looked up): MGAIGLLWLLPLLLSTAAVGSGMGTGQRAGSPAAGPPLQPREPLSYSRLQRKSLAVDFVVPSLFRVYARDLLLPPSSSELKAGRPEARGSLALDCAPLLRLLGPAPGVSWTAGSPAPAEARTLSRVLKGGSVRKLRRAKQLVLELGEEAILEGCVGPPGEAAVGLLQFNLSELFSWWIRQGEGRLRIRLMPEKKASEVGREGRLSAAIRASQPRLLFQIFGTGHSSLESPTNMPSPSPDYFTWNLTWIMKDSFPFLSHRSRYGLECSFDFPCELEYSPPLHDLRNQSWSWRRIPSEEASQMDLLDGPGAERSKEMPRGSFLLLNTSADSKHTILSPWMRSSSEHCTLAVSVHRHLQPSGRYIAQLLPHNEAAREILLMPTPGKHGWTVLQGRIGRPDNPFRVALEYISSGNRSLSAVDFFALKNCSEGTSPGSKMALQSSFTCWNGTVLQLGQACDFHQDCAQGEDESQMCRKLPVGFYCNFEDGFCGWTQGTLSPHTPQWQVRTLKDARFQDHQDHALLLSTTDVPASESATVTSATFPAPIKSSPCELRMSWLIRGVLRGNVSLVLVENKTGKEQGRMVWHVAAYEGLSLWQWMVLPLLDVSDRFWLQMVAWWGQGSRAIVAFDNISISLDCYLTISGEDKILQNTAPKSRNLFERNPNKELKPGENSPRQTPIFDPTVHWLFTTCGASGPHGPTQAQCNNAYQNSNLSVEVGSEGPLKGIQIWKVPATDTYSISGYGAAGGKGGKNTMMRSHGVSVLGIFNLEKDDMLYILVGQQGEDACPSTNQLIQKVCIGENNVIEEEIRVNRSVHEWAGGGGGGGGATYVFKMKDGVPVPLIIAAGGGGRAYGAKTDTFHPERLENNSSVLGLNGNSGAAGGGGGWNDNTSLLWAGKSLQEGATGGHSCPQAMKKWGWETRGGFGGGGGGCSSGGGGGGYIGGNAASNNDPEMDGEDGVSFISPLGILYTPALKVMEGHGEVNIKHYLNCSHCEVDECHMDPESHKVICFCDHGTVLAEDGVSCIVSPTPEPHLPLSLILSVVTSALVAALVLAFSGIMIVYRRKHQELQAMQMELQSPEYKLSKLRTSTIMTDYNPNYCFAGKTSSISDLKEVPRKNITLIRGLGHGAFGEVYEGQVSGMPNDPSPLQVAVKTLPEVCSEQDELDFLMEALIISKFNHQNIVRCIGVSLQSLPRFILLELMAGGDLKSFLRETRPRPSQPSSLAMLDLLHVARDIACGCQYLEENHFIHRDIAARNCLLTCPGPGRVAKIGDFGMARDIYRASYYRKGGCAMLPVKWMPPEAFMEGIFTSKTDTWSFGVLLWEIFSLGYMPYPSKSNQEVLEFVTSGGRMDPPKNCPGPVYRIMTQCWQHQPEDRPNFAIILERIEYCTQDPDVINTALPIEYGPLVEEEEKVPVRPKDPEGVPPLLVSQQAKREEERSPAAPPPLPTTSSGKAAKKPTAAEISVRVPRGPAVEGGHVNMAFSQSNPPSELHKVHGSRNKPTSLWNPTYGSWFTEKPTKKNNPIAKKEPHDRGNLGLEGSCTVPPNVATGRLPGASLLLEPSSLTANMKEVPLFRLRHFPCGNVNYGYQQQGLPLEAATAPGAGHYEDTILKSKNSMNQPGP
# Chain of UniProt P01317 (whole entry, looked up): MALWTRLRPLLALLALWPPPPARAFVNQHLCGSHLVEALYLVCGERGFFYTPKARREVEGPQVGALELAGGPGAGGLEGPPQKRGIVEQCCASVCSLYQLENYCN
# Chain of UniProt P07737 (whole entry, looked up): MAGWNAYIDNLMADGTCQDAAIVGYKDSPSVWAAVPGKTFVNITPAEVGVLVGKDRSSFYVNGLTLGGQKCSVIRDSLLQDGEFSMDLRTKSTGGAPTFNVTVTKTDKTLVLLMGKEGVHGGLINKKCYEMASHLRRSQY
SMILES,tested on,test,system,setting,measurement,value
COc1cc(-c2ccc(N3CCOCC3)cc2)cc(C=O)c1O,"Serine/threonine-protein kinase/endoribonuclease IRE1 (Mus musculus, UniProt Q9EQY0, N772Y)",microscale thermophoresis,,,Kd,55.7 µM
CC(=O)N[C@@H](CCCNC(=N)N)C(=O)N[C@H](C(=O)N[C@@H](CCCCN)C(=O)N[C@@H](CO)C(=O)N[C@@H](CCCNC(=N)N)C(=O)N[C@H](C(=O)N[C@@H](Cc1c[nH]c2ccccc12)C(=O)N[C@@H](C)C(=O)NCC(=O)N[C@@H](CCC(=O)O)C(=O)N[C@@H](CCCCN)C(=O)N[C@@H](CO)C(=O)N[C@@H](CCCCN)C(=O)N[C@@H](CCCNC(=N)N)C(N)=O)[C@@H](C)OP(=O)(O)O)[C@@H](C)O,"14-3-3 protein epsilon (Homo sapiens, UniProt P62258)","binding, SPR",,,Kd,0.15 µM
CN(C)c1ccc(/C=C/c2cc(/C=C3\Sc4ccccc4N3CCCN3CCCC3)c3ccccc3[n+]2C)cc1,hTERT promoter G-quadruplex DNA (human),isothermal titration calorimetry,,"pH 7.4, 25 °C, 2% DMSO, 60 mM KCl",Kd,2.37 µM
Cc1c[nH]c2nccc(-c3ccc(C(=O)N[C@@H]4c5c(F)cc(C(F)F)cc5C[C@@H]4O)cn3)c12,"PKN1 (Homo sapiens, UniProt Q16512)","binding, competition with immobilised ligand",,,Kd,1.6 µM
CC(=O)N[C@@H](CC(C)C)C(=O)N[C@@H](CCCNC(=N)N)C(=O)NCC(=O)N[C@@H](CO)C(=O)NCC(=O)N[C@@H](C)C(=O)N[C@@H](Cc1c[nH]c2ccccc12)C(=O)NCC(=O)N[C@@H](CC(C)C)C(=O)N[C@@H](CC(C)C)C(=O)N[C@@H](CC(C)C)C(=O)N[C@@H](CCCNC(=N)N)C(=O)N[C@@H](CCCNC(=N)N)C(=O)N[C@H](C(=O)NCC(=O)N[C@@H](CC(=O)O)C(=O)N[C@@H](CC(=O)O)C(=O)N[C@H](C(=O)N[C@@H](CC(C)C)C(=O)N[C@H](C(=O)N[C@@H](Cc1c[nH]cn1)C(=O)N[C@@H](CC(C)C)C(=O)N[C@@H](CC(C)C)C(=O)N[C@@H](C)C(=O)N[C@@H](CCCNC(=N)N)C(N)=O)C(C)C)C(C)C)C(C)C,"BAK1 (Homo sapiens, UniProt Q16611)","binding, FP",,pH 8,Kd,> 20 µM
O=S(=O)(NC1=NCCCCC1)c1ccc2sc(NS(=O)(=O)c3ccc4ccccc4c3)nc2c1,"Kelch-like ECH-associated protein 1 (Mus musculus, UniProt Q9Z2X8)",binding,,,Kd,0.186 µM
C=CC(=O)N1C[C@H](C)N(c2nc(OC[C@@]34CCCN3C[C@H](F)C4)nc3c(F)c(-c4ccc(F)c5sc(N)c(C#N)c45)c(C(F)(F)F)cc23)C[C@H]1C,"GTPase KRas, GDP-bound (KRAS, Homo sapiens, UniProt P01116, A146T)",SPR,,,Kd,0.00188 ± 0.00068 µM
Nc1ncc(-c2cc(-c3cnn(CC(F)(F)F)c3)ncc2F)nc1C(=O)NC1CNCC(F)C1 (stereo not shown),"CHEK2 (Homo sapiens, UniProt O96017)","binding, competition with immobilised ligand",,,Kd,0.12 µM
CCn1nc(Cl)c2c1-c1cnc(N)c(c1)O[C@H](C)c1cc(F)ccc1-c1nn(C)cc1C2,"ALK (Homo sapiens, UniProt Q9UM73, D1203N)","enzyme activity, inhibitor",,together with: 1 mM ATP,IC50,0.0068 µM
COc1ccc2cc3[n+](cc2c1OCCCOC(=O)c1cscn1)CCc1cc2c(cc1-3)OCO2,"PCSK9 (Homo sapiens, UniProt Q8NBP7)","binding, SPR",,pH 7.4,Kd,1.8 µM
CN(C)c1ccc2c(c1)C(=O)N(CCc1ccc(O)cc1)C2=O,CA2,binding,,,Kd,9.03 µM and ~9 µM
CC(C)CC(=O)Nc1ccc([C@H]2[C@@H](F)[C@@H](F)C[C@@H](F)[C@H]2F)cc1,,liver microsome stability,cynomolgus liver microsomes,1 µM,hepatic clearance,0.294 L/h/kg
CCCCOc1ccc(CC(=O)NO)cc1,ALDH1B1,"binding, SPR",,,Kd,1.86 µM
O=C(O)c1ccnc(-c2ccc(F)cc2)c1,Tumor necrosis factor receptor superfamily member 1A extracellular domain,"binding, SPR OneStep",,,Kd,1450 ± 40 µM
O=C(Nc1ccc(C2CCCCC2)cc1)C1(N2CCOCC2)CC1,,liver microsome stability,dog liver microsomes,1 µM,hepatic clearance,1.68 L/h/kg
COC1(C2=NCCN2)COc2ccccc2O1 (stereo not shown),α2-adrenergic receptor chimera,[3H]compound saturation binding,HEK293 membranes,α2c(NT)/α2a(TM1-CT)-AR chimera,Kd,0.00165 ± 0.0001 µM
CCOC(=O)C1CC(CC)C2C=CC3CCN(C(=O)C4CCC5C=CC6(CCCN6C(=O)C(Cc6ccccc6Cl)NC(C)=O)C(=O)N54)C3C(=O)N12 (stereo not shown),"Profilin-1 (PFN1, Homo sapiens, UniProt P07737)","binding, NMR",,,Kd,210 µM
COc1ccc(C(=O)NO)cc1NC(=O)c1ccc(-c2ccccc2)cc1,GATD3,"inhibitor, competition pulldown",SW620 and MV4-11 lysate,1 h,Kd,> 30.2 µM
CCCOc1ccc(-c2ccc(C#N)cc2)cc1,"Monocarboxylate transporter 10 (Rattus norvegicus, UniProt Q91Y77)","binding, ITC",,,Kd,0.356 µM
CCc1nc2cc3ccccc3cc2cc1C(=O)N1CCC[C@H]1C(=O)N[C@@H](CCC/C=C/CCC[C@H](NC(=O)[C@@H]1CCCN1C(=O)c1cc2cc3ccccc3cc2nc1CC)C(=O)N[C@@H](CCCCN)C(=O)NCCCN)C(=O)N[C@@H](CCCCN)C(=O)NCCCN,(CUG)2 RNA,SPR,,,Kd,0.768 µM
Cc1nn(-c2cccc(N)c2)c(=O)c2cnc(Nc3ccc(N4CCNCC4)cc3)nc12,"DAPK3 (Homo sapiens, UniProt O43293)",SelectScreen kinase,,,IC50,> 10 µM
O=C(CCc1ccccc1)Nc1ccc(-c2ccnc(C(=O)O)c2)cc1,Tumor necrosis factor receptor superfamily member 1A extracellular domain,"binding, SPR OneStep",,,Kd,550 ± 157 µM
NS(=O)(=O)c1cc2c(cc1Cl)NC(CC1CCCC1)NS2(=O)=O (stereo not shown),ALDH1B1,"binding, SPR",,,Kd,0.71 µM
O=C1C2CCCC(C(C(O)CO)CN1Cc1ccccn1)N2S(=O)(=Nc1ccccc1)c1cc(Cl)cc(Cl)c1 (stereo not shown),FKBP4 FK1 domain,competitive fluorescence polarization,,"protein 10 nM, together with: 1 nM tracer",Kd,> 40 µM
COc1ccc(Cn2ccc3ccc(C(=O)NO)cc32)cc1,GATD3,"inhibitor, competition pulldown",SW620 and MV4-11 lysate,1 h,Kd,> 30.2 µM
CN(C)c1ccc2c(c1)C(=O)N(CCc1ccc(OS(N)(=O)=O)cc1)C2=O,CA2,binding,,,Kd,0.13 µM
C=CC1CN(Cc2ccccn2)C(=O)C2CCCC1N2S(=O)(=NC)c1cc(Cl)cc(Cl)c1 (stereo not shown),FKBP4 FK1 domain,competitive fluorescence polarization,,"protein 10 nM, together with: 1 nM tracer",Kd,> 40 µM
O=C(O)CCC(NC(=O)NC(CCCCNC(=O)C(Cc1ccc2ccccc2c1)NC(=O)C1CCC(CNC(=O)CCCCCNC(=S)Nc2ccc3c(c2)C(=O)OC32c3ccc(O)cc3Oc3cc(O)ccc32)CC1)C(=O)O)C(=O)O (stereo not shown),"FOLH1 (Homo sapiens, UniProt Q04609)","cell-free assay, FP",,,Kd,0.00053 µM
C=CC1CN(Cc2ccccn2)C(=O)C2CCCC1N2S(=O)(=Nc1ccccc1)c1cc(Cl)cc(Cl)c1 (stereo not shown),FKBP4 FK1 domain,competitive fluorescence polarization,,"protein 10 nM, together with: 1 nM tracer",Kd,> 40 µM
Nc1cccc(-c2ccc(C(=O)O)nc2)c1,Tumor necrosis factor receptor superfamily member 1A extracellular domain,"binding, SPR OneStep",,,Kd,219 ± 125 µM
CC(/C=C/C(=O)NO)=C\[C@@H](C)C(=O)c1ccc(N(C)C)cc1,"Isochorismatase domain-containing protein 2 (ISOC2, Homo sapiens, UniProt Q96AB3)","inhibitor, competition pulldown",SW620 and MV4-11 lysate,1 h,Kd,> 30.2 µM
O=C(O[C@@H]1Cc2c(O)cc(O)cc2O[C@@H]1c1cc(O)c(O)c(O)c1)c1cc(O)c(O)c(O)c1,grass carp GPBAR1,"binding, microscale thermophoresis",HEK-293T lysate,,Kd,4.22 ± 0.68 µM
CC(C)C[C@H](NC(=O)[C@@H](CCCCNC(=O)[C@@H](Cc1ccccc1)NC(=O)CCCCCNC(=O)CN1CCN(CC(=O)O)CCN(CC(=O)O)CCN(CC(=O)O)CC1)NC(=O)[C@H](Cc1ccc(O)cc1)NC(=O)[C@H](CO)NC(=O)[C@H](Cc1c[nH]c2ccccc12)NC(=O)[C@H](Cc1c[nH]cn1)NC(=O)[C@@H]1CCC(=O)N1)C(=O)N[C@@H](CCCNC(=N)N)C(=O)N1CCC[C@H]1C(=O)NCC(N)=O [indium-111 labelled],,,"female athymic nude mice, kidneys","intravenous, 0.037 MBq, 4 h",tissue uptake,5.33 ± 0.71 %ID/g
C=CC(=O)N1CCCN(C(=O)c2cc(Sc3cnc(NC(=O)C4CC4)s3)c(C)cc2OC)C[C@H]1C,"EGFR (Homo sapiens, UniProt P00533)","cell-free assay, competition with immobilised ligand",,,Kd,> 10 µM
OC[C@H]1[C@@H](O)[C@H](O)[C@@H](O)CN1CCCC/C=C\C12CC3CC(CC(C3)C1)C2,"Ugcg (Mus musculus, UniProt O88693)","enzyme activity, inhibitor, fluorescence",,,IC50,14.3 µM
CCc1nc2cc3ccccc3cc2cc1C(=O)N1CCC[C@H]1C(=O)N[C@@H](C/C=C\C[C@H](NC(=O)[C@@H]1CCCN1C(=O)c1cc2cc3ccccc3cc2nc1CC)C(=O)N[C@@H](CCCCN)C(=O)NCCCN)C(=O)N[C@@H](CCCCN)C(=O)NCCCN,(CUG)2 RNA,SPR,,,Kd,0.043 µM
CN(C)c1ccc(C2=Nc3sc4cc(C(F)(F)F)ccc4[n+]3[B-](F)(F)O2)cc1,"Insulin, amyloid fibrils (INS, Bos taurus, UniProt P01317)","binding, fluorescence saturation",,,Kd,0.695 ± 0.066 µM

# Repeated from above:
SMILES,tested on,test,system,setting,measurement,value
C=CC1CN(Cc2ccccn2)C(=O)C2CCCC1N2S(=O)(=NC)c1cc(Cl)cc(Cl)c1 (stereo not shown),FKBP4 FK1 domain,competitive fluorescence polarization,,"protein 10 nM, together with: 1 nM tracer",Kd,> 40 µM
O=C(O)CCC(NC(=O)NC(CCCCNC(=O)C(Cc1ccc2ccccc2c1)NC(=O)C1CCC(CNC(=O)CCCCCNC(=S)Nc2ccc3c(c2)C(=O)OC32c3ccc(O)cc3Oc3cc(O)ccc32)CC1)C(=O)O)C(=O)O (stereo not shown),"FOLH1 (Homo sapiens, UniProt Q04609)","cell-free assay, FP",,,Kd,0.00053 µM
C=CC1CN(Cc2ccccn2)C(=O)C2CCCC1N2S(=O)(=Nc1ccccc1)c1cc(Cl)cc(Cl)c1 (stereo not shown),FKBP4 FK1 domain,competitive fluorescence polarization,,"protein 10 nM, together with: 1 nM tracer",Kd,> 40 µM
Nc1cccc(-c2ccc(C(=O)O)nc2)c1,Tumor necrosis factor receptor superfamily member 1A extracellular domain,"binding, SPR OneStep",,,Kd,219 ± 125 µM
CC(/C=C/C(=O)NO)=C\[C@@H](C)C(=O)c1ccc(N(C)C)cc1,"Isochorismatase domain-containing protein 2 (ISOC2, Homo sapiens, UniProt Q96AB3)","inhibitor, competition pulldown",SW620 and MV4-11 lysate,1 h,Kd,> 30.2 µM
